Measured values collected from several papers.
Parts stem from different laboratories: compare values within a part only.
UniProt Q14289, sequence (whole entry, looked up): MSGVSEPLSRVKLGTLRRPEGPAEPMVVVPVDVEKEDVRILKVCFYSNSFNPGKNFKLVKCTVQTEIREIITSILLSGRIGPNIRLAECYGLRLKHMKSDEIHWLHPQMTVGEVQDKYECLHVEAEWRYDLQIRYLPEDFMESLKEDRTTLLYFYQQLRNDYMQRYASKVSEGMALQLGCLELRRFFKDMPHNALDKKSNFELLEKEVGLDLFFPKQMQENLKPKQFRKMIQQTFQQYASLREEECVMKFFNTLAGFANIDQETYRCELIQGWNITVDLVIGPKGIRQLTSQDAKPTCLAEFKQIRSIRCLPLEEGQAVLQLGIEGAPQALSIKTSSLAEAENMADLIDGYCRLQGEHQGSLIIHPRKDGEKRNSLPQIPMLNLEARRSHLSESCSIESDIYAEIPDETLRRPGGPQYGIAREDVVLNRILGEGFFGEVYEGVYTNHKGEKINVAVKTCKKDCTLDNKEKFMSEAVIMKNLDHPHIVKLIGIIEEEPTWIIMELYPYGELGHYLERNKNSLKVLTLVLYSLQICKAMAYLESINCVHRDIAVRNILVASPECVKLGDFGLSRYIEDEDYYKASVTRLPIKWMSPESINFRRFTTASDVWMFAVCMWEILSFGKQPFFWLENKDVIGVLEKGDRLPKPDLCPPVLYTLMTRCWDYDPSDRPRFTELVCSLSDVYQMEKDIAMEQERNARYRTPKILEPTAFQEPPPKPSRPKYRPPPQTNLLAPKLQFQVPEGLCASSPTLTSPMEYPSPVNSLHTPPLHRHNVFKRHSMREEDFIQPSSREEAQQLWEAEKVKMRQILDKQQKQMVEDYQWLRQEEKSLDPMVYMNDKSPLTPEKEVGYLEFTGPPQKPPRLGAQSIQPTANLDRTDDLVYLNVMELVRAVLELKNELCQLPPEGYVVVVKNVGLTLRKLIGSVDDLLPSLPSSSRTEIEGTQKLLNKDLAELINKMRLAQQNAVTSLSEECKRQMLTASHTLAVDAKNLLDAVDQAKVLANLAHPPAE
UniProt Q06418, sequence (whole entry, looked up): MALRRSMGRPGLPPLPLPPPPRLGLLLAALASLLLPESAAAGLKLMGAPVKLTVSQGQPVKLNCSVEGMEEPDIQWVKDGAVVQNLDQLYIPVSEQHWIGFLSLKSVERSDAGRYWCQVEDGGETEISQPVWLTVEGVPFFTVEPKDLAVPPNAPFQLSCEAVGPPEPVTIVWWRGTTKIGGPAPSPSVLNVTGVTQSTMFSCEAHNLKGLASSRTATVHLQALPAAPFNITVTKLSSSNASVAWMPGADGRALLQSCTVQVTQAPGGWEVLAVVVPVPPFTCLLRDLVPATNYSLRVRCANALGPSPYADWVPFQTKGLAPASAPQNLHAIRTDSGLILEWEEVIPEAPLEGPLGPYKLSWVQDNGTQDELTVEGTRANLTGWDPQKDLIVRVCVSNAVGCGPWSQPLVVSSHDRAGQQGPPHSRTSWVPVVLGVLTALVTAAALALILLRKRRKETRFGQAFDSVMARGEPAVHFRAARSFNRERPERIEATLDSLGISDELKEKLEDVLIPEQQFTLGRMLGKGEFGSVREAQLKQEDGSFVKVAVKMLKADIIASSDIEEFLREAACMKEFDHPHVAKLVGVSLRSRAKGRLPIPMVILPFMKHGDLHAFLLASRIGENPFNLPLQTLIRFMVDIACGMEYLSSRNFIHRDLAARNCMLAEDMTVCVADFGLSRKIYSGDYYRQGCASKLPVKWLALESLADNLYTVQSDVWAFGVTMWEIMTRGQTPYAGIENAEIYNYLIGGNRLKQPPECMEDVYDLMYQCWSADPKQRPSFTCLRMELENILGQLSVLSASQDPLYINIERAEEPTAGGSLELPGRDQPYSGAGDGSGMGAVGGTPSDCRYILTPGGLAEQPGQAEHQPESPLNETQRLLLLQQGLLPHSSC
UniProt P21127, sequence (whole entry, looked up): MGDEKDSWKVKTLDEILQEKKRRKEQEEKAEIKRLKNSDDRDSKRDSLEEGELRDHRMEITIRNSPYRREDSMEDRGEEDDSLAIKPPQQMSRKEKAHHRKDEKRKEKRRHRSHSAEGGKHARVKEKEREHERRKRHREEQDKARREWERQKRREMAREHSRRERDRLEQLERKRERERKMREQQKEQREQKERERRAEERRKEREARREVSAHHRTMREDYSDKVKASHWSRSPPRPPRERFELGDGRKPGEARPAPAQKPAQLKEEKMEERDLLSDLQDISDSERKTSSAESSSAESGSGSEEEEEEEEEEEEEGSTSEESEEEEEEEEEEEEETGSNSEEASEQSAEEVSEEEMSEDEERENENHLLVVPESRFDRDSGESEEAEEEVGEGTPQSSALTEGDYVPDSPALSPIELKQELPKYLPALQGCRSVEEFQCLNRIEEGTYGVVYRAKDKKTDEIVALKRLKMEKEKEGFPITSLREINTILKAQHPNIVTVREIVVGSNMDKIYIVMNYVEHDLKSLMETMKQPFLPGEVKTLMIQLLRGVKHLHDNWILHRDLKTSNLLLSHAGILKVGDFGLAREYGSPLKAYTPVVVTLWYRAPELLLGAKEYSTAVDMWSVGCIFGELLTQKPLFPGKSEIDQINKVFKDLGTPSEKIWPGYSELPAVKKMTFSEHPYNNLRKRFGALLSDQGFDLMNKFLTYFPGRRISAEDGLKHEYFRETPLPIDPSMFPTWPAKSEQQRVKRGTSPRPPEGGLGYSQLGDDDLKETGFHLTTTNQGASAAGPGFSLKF
UniProt P29317, sequence (whole entry, looked up): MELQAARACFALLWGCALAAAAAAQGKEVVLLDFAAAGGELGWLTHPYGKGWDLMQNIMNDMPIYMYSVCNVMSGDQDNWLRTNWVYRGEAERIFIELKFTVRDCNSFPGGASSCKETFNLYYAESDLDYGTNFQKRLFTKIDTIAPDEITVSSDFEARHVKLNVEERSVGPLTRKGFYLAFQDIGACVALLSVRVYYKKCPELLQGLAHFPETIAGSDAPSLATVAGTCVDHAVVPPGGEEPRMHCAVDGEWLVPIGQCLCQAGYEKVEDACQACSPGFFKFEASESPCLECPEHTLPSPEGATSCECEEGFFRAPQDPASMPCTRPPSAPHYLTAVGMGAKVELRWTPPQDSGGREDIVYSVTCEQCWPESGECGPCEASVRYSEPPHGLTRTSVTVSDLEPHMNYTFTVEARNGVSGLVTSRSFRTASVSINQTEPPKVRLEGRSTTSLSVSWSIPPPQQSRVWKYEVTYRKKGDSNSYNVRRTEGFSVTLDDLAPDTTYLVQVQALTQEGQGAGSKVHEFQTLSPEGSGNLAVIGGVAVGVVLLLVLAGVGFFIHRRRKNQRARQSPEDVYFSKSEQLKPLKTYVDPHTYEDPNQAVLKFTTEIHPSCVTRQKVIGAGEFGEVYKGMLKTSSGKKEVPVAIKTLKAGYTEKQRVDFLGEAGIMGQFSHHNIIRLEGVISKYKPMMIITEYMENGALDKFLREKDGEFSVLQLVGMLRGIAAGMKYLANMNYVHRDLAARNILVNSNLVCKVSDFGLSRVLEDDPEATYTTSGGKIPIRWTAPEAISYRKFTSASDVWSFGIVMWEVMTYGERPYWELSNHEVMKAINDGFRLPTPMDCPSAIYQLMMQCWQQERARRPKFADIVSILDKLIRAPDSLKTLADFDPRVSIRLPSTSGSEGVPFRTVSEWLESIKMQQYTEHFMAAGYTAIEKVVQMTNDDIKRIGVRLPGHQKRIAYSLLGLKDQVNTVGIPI
UniProt P42338, sequence (whole entry, looked up): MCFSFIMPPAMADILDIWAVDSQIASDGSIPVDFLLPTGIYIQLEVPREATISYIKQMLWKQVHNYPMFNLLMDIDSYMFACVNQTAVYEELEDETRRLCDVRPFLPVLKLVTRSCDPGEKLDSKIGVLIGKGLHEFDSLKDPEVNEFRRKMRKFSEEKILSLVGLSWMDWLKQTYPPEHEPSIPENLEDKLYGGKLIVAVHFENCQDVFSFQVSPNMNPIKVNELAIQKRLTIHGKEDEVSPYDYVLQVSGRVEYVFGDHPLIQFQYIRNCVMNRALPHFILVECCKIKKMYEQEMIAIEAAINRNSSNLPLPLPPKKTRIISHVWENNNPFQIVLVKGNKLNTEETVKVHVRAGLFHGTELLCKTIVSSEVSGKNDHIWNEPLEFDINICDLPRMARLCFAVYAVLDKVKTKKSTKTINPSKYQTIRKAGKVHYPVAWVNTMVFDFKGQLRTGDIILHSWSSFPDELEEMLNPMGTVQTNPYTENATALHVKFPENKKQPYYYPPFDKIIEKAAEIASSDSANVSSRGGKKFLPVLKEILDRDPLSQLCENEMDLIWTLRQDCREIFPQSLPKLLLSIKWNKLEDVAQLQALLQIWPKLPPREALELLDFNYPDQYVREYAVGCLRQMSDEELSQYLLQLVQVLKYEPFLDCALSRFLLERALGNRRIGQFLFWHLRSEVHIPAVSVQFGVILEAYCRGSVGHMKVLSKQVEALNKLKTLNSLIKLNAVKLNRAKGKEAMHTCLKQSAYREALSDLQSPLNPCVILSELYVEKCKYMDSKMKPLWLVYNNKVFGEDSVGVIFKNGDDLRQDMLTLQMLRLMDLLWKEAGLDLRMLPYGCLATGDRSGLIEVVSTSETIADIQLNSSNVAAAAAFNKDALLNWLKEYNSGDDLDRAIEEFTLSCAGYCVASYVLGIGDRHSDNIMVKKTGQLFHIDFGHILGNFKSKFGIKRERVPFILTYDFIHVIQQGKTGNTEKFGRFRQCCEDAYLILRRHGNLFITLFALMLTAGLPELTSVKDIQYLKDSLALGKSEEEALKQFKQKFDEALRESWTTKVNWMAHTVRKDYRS

Sample 1 — technique: RNA Bind-n-Seq; molecule type: RNA; matrix: in vitro; tested at: 365 nM; baseline: no-protein control; reading: higher = stronger binding; quantity: RBNS enrichment (R)
Target: RNA binding protein fox-1 homolog 2, RRM domain, GST-SBP tag (RBFOX2, Homo sapiens, UniProt O43251-10, residues 100-194)
Setting: natural RNA segment, single round, ends assumed
Constant ends, left off below: GGGAGUUCUACAGUCCGACGAUC … UGGAAUUCUCGGGUGCCAA
Target sequence (chain): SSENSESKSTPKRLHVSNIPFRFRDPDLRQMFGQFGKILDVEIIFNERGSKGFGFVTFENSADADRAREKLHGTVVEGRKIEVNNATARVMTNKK
Strand = UUAAGAAGGACAGUUCAUUGUAGGAAAGCAAUUCUGUACAUGAGUUUAAGCAUUCUUGUUGCAUUGUCUCUGCAGAUUCUAUUUUUGUUUACAAUAUUAAAAUGUAUGUU; value = 0.874
Strand = AGCCUGAAUGGACGUAGCACUGUCAUGUGGCAUUUGGAAAAUCUUUAAUUAUCCUAAUGUUAUUUCACUUGCCCUUAUGCUUUAUUUUAGAGUCCCAGGGACAACUGGAU; value = 0.426
Strand = AAGACUAUCCAAGCUGUGCUGACUGUCCCCAAGCUGAAGCUGAGCUUCGAAGGCGAACUUACCAAGUCUCUGCAGGACAUGGAGCUACAGUCGUUGUUUGAAUCACCCGA; value = 0.296
Strand = CUGGCUGCCUCCACUCCCACUUCCCUGACACUGCGGGGCUUGGCUGAGAGAGUGGCAUUGGCAGCAGGUGCUGCUACCCUCCCUGCUGUCCCCUCUUGCCCCAACCCCCA; value = 0.653
Strand = CCAUCCUUGUGGAUGUGAAGUGGUAACUCAUUGUGGCUUUGAUUUACAUUUCCUUGAUAGCUAAUGAUGAGCAUUUUUCAUGUGCUUAUGGGCCGUUUAUAUACCUUUGG; value = 0.627
Strand = UCAUUUUAACGUGUUGUUUAUUCUGUUUCACGACCUACAUACAGUUCUUGUGCAUCAGGAUAUAUCAAGCUGCCUUCAUGGCUAUAGAAUGUAAUGUAAGAAAAAUGUUC; value = 0.343
Strand = GUUCUGUGGGGCACUGGGUGAUACUCAGUUUCUUGUUCCUGGCCGUGGAGAGGGGCCUGGGGCACUGGUUCCGGCUGUGUCUGGUGGUCUGGCUGCGGGGAAGGGGCAAG; value = 0.269
Strand = CAUUACUCACCUGGCACAGACGGCCUAAAUGCAAUCCCCAGCACAAAAAGAGACUGCCUACAAAUUGUUCCUCUAGAUCAUCGGGGCAGAGGUGCUGUCUAUAAAGCCCC; value = 0.321

Sample 2 — Structure (SMILES): CC(C)(O)c1cncc(-c2nc3ccc(F)cc3n2C2CC2)c1; observed: cell-free assay; technique: competition with immobilised ligand; tested at: 1 µM; quantity: remaining binding
target = TYRO3 (Homo sapiens, UniProt Q06418); value = 100%
target = PTK2B (Homo sapiens, UniProt Q14289); value = 100%
target = CDK11B (Homo sapiens, UniProt P21127); value = 100%
target = EPHA2 (Homo sapiens, UniProt P29317); value = 100%
target = PIK3CB (Homo sapiens, UniProt P42338); value = 81%
target = FLT3 (Homo sapiens, UniProt P36888, N841I); value = 100%

Sample 3 — technique: RNA Bind-n-Seq; molecule type: RNA; matrix: in vitro; tested at: 20 nM; setting: 6-mer, flanks averaged, single round; added: 150 mM LiCl; baseline: input library; reading: higher = stronger binding; quantity: 6-mer enrichment (R)
Target: TAR DNA-binding protein 43, full length, His tag (TARDBP, Homo sapiens, UniProt Q13148, residues 1-414)
Strand = AACUGU; value = 0.91
Strand = GGGUGA; value = 1.37
Strand = CAGAGA; value = 0.864
Strand = CGGAUU; value = 0.907
Strand = CGGUGG; value = 1.14
Strand = UGCGUC; value = 1.06
Strand = GCAGUA; value = 0.955
Strand = UAUUAA; value = 0.985

Sample 4 — observed: enzyme activity; action: inhibitor; tested at: 0.5 µM; baseline: control; quantity: remaining activity
Target: Mitogen-activated protein kinase kinase kinase 7 (MAP3K7, Homo sapiens, UniProt O43318)
Residues (O43318 1-606): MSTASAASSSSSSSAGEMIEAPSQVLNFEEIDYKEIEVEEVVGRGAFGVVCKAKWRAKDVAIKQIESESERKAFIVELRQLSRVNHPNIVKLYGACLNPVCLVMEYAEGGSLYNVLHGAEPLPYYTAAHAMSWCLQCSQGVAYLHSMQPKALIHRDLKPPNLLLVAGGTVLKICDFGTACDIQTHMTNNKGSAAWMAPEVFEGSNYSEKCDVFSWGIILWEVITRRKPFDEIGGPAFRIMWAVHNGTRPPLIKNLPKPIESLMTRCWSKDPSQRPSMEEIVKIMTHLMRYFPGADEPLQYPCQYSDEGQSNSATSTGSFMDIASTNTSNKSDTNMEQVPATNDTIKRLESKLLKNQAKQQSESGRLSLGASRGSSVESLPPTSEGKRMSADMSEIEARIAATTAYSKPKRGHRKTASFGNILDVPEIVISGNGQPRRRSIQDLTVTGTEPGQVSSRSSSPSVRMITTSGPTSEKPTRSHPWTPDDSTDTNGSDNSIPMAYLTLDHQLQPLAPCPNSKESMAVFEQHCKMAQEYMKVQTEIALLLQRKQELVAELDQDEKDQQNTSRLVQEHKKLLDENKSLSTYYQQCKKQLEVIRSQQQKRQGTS
Compound = Nc1ncnc2n[nH]c(Nc3ccc(F)cc3)c12; value = 100%
Compound = COc1cc2nccc(Oc3ccc(NC(=S)NC(=O)c4ccccc4C)cc3)c2cc1OC; value = 95.6%
Compound = COc1ccc(C(=O)Nc2sc3c(c2C(N)=O)CCCC3)cc1OC; value = 101%
Compound = O=C1NC(=O)C(c2cn(CCCO)c3ncccc23)=C1c1cnccn1; value = 95.5%
Compound = Cc1ccc(NC(=O)c2ccc(CN3CCN(C)CC3)cc2)cc1Nc1nc(-c2cccnc2)cs1; value = 98.6%
Compound = O=c1c2ccccc2[nH]c(=S)n1CCN1CCC(=C(c2ccc(F)cc2)c2ccc(F)cc2)CC1; value = 103%
Compound = O=C1NC(=O)C(c2cn(CCCn3ccnc3)c3ccccc23)=C1Nc1ccccc1; value = 93.8%
Compound = CC(C)[C@H](CO)Nc1nc(Nc2cc(N)cc(Cl)c2)c2ncn(C(C)C)c2n1; value = 51.3%
Compound = Cc1nc(-c2ccccc2)c(-c2ccncc2)o1; value = 93.6%
Compound = Nc1[nH]nc2nc3ccccc3nc12; value = 100%
Compound = Nc1ccc2ncnc(NCCc3ccc(Oc4ccccc4)cc3)c2c1; value = 96.2%
Compound = OCC(O)CCON=C1C(c2c(O)[nH]c3ccccc23)=Nc2ccccc21 (stereo not shown); value = 50.5%
Compound = Oc1ccc(-c2nc(-c3ccncc3)c(-c3ccc(F)cc3)[nH]2)cc1; value = 97.7%
Compound = N#CC(C#N)=C(N)/C(C#N)=C/c1ccc(O)cc1; value = 94.8%
Compound = COc1ccc(OC)c2c(=S)c3ccccc3[nH]c12; value = 98.8%

Some of these lines once more (sample 4):
Compound = Cc1nc(-c2ccccc2)c(-c2ccncc2)o1; value = 93.6%
Compound = CC(C)[C@H](CO)Nc1nc(Nc2cc(N)cc(Cl)c2)c2ncn(C(C)C)c2n1; value = 51.3%
Compound = O=C1NC(=O)C(c2cn(CCCO)c3ncccc23)=C1c1cnccn1; value = 95.5%
Compound = Oc1ccc(-c2nc(-c3ccncc3)c(-c3ccc(F)cc3)[nH]2)cc1; value = 97.7%
Compound = Nc1ncnc2n[nH]c(Nc3ccc(F)cc3)c12; value = 100%
